Assay results pooled from the literature.
Each numbered part is a random draw from the data of one study; scales do not carry over between parts.

Sample 1
Target: Histone acetyltransferase KAT6A, winged helix 1, GST fusion (KAT6A, Homo sapiens, UniProt Q92794, residues 1-85)
Technique: protein binding microarray
Molecule type: double-stranded DNA, one strand shown
Matrix: in vitro
Tested at: not given
Setting: 8-mer, flanks averaged, mean of 2 arrays, mostly near background
Reference: not given
Direction: higher = stronger binding
Target sequence (chain): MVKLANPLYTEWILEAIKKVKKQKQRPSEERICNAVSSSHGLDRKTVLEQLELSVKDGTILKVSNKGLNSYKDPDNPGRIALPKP
| Strand | E-score |
| --- | --- |
| ATATCTGG | -0.235 |
| GTCCAGAA | -0.167 |
| GCGAATCC | 0.0581 |

Sample 2
Target: Sal-like protein 4, full length isoform B (SALL4, Homo sapiens, UniProt Q9UJQ4-2, residues 1-616)
Technique: universal PBM
Molecule type: double-stranded DNA, one strand shown
Matrix: in vitro
Tested at: not given
Setting: 8-mer, flanks averaged, mean of replicates
Direction: higher = stronger binding
| Strand | E-score |
| --- | --- |
| GGTAAGCA | -0.0508 |
| AAGTTTCC | 0.118 |
| CGTTTAAA | 0.112 |

Sample 3
Target: Prothrombin, mature alpha-thrombin (F2, Homo sapiens, UniProt P00734)
Technique: aptamer microarray, sandwich
Molecule type: DNA with 2'F-ANA
Matrix: in vitro
Tested at: 200 nM
Setting: whole 15-mer aptamer, many near background
Together with: Cy3 exosite-II aptamer, 400 nM
Direction: higher = stronger binding
| Strand | mean fluorescence intensity [a.u.] |
| --- | --- |
| GGTTGGTGTGGTTGG (2'F-ANA at 2 4 5 10 13 15) | 70.8 |
| GGTTGGTGTGGTTGG (2'F-ANA at 1 2 4 7 10 11 12 13 15) | 54.6 |
| GGTTGGTGTGGTTGG (2'F-ANA at 4 5 10 11 14 15) | 60.5 |
| GGTTGGTGTGGTTGG (2'F-ANA at 3 4 5 6 7 9 10 11 12 14) | 52 |

Other studies, line by line
| Molecule | target | assay | system | conditions | scale | measurement | value |
| --- | --- | --- | --- | --- | --- | --- | --- |
| PhoQ, residues 284 288 289 292 302 303 GASLAW | PhoP, residues 12 14 15 18 19 IQSYL (Escherichia coli, UniProt P23836) | Sort-seq, item: YFP reporter | E. coli | PhoQ-PhoP variant library, together with: 10 µM Mg2+ | reference: high Mg2+ state, higher = stronger signaling | fold induction | 15.8 |

Excerpt of the above (sample 2):
| Strand | E-score |
| --- | --- |
| CGTTTAAA | 0.112 |
